# Assay results of several laboratories.
# Values joined by “and” are separate records of one study, mostly repeats; a detail may differ. ± marks the error that the study gave.
SMILES,target or system,test,test system,setting,scale,endpoint,result
O=C(COc1ccc(Cl)cc1)NC12CC(c3nnc([C@H]4C[C@@H](OC(F)(F)F)C4)o3)(C1)C2,,,human both sexes,"oral, 200 mg once daily, 14 days",,participants maximum mild TEAE,57.1%
CC[C@H](C)[C@H](NC(=O)[C@H](Cc1ccccc1)NC(=O)[C@H](CCC(=O)O)NC(=O)[C@H](CCCCNC(=O)COCCOCCNC(=O)COCCOCCNC(=O)CC[C@H](NC(=O)CCCCCCCCCCCCCCCCC(=O)O)C(=O)O)NC(=O)[C@H](C)NC(=O)[C@H](C)NC(=O)[C@H](CCC(N)=O)NC(=O)CNC(=O)[C@H](CCC(=O)O)NC(=O)[C@H](CC(C)C)NC(=O)[C@H](Cc1ccc(O)cc1)NC(=O)[C@H](CO)NC(=O)[C@H](CO)NC(=O)[C@@H](NC(=O)[C@H](CC(=O)O)NC(=O)[C@H](CO)NC(=O)[C@@H](NC(=O)[C@H](Cc1ccccc1)NC(=O)[C@@H](NC(=O)CNC(=O)[C@H](CCC(=O)O)NC(=O)C(C)(C)NC(=O)[C@@H](N)Cc1cnc[nH]1)[C@@H](C)O)[C@@H](C)O)C(C)C)C(=O)N[C@@H](C)C(=O)N[C@@H](Cc1c[nH]c2ccccc12)C(=O)N[C@@H](CC(C)C)C(=O)N[C@H](C(=O)N[C@@H](CCCNC(=N)N)C(=O)NCC(=O)N[C@@H](CCCNC(=N)N)C(=O)NCC(=O)O)C(C)C,,12-lead Holter ECG,healthy humans,"subcutaneous, 1.5 mg once weekly, 24 h, steady state",relative to: placebo,QTcB change from baseline,11 ms
C[C@H]1Oc2cc(cnc2N)-c2c(nn(C)c2C#N)CN(C)C(=O)c2ccc(F)cc21,,population PK,"patients with mild renal impairment, plasma","oral, 100 mg, median, single dose",,clearance,134 mL/min
OC[C@H]1O[C@@H](c2ccc(Cl)c(Cc3ccc(O[C@H]4CCOC4)cc3)c2)[C@H](O)[C@@H](O)[C@@H]1O,,refers to: blood and lymphatic disorders,healthy Korean men,"oral, dose not given",,number of TEAEs,1
COc1cc2c3cc1Oc1c(OC)c(OC)cc4c1[C@@H](Cc1ccc(O)c(c1)Oc1ccc(cc1)C[C@@H]3N(C)CC2)N(C)CC4,,,"mouse plasma, K3EDTA","1 h, 25-26 °C, room temperature",,remaining compound,98%
CN[C@@H](C)C(=O)N[C@H]1CN(S(=O)(=O)c2cccc(S(=O)(=O)N3CC[C@H]4CC[C@@H](C(=O)NC(c5ccccc5)c5ccccc5)N4C(=O)[C@@H](NC(=O)[C@H](C)NC)C3)c2)CC[C@H]2CC[C@@H](C(=O)NC(c3ccccc3)c3ccccc3)N2C1=O,,LC-MS/MS,"human, advanced solid tumours, plasma","intravenous, 45 mg weekly, day 1",,AUC(0-t),938 ± 261 ng·h/mL
O=C(O)CCCOc1ccc([18F])cc1-c1cc(-c2ccccc2C(F)(F)F)n(-c2ccccc2)n1,,gamma counting,"male ddY mice, liver","intravenous, 2.1 MBq, 1 min",,radioactivity uptake,1.88 ± 0.89 SUV
CCn1cc(C(=O)N2CCOCC2)c(=O)c2cc(NC3Cc4ccccc4C3)cnc21,,,"human male, fed, plasma","oral, 900 mg twice daily, day 1, tablet, arithmetic mean",,CL/F,33.3 L/h
COc1ccnc(C(N)=O)c1O,,,water/sediment,"whole system, geometric mean, no decline default",,DT50,1000 days
CCc1cc(C(=O)NC)c2nccc(N3CCc4c(cc(Cn5ccnc5)cc4-c4cn(C)nc4C(F)(F)F)C3=O)c2c1,,,Sprague Dawley rat,"oral, 50 mg/kg once daily, 7 days",,heart weight,1 ± 0.056 g
Cc1ccc(C(=O)N(CCCN)C(c2nc3snc(C)c3c(=O)n2Cc2ccccc2)C(C)C)cc1 (stereo not shown),,,human patients,"intravenous, 18 mg/day",,grade ≥3 hypokalemia patients,25%
NC1(C(=O)N[C@@H](CCO)c2ccc(Cl)cc2)CCN(c2nc[nH]c3nccc2-3)CC1,,,metastatic CRPC patients,"480 mg b.i.d., any grade, treatment-related, added: enzalutamide 160 mg daily",,incidence of Erythema,0%
CCc1nc(C(N)=O)c(Nc2ccc(N3CCC(N4CCN(C)CC4)CC3)c(OC)c2)nc1NC1CCOCC1,,,"Japanese patients, plasma and urine","oral, 80 mg, cycle 1 day 28, multiple doses, median",,renal clearance,30.8 mL/min
Cc1ccc(Sc2ccccc2N2CCNCC2)c(C)c1,,,healthy adult men,"oral, 2.5 mg single",,any adverse event,0%
Cc1cc(C)c(CNC(=O)c2cc(Cl)c3c(c2C)O[C@@](C)([C@H]2CC[C@H](N(C)C)CC2)O3)c(=O)[nH]1,,,"human, plasma","oral, 200 mg, cycle 1 day 1",,half-life total drug,9.46 h
CCOc1c([C@H](C)n2nc(C)c3c(N)ncnc32)cc(Cl)c(F)c1[C@@H]1CNC(=O)C1,,refers to: QTcF change above 60 ms,previously treated B-cell malignancy,"oral, 5 mg once daily, overall population",relative to: baseline,ECG observations,0%
O=C(CCCCCCC(=O)Nc1ccc(CC[18F])cc1)NO,,,"athymic nu/nu male mice, LNCaP xenograft, spleen","intravenous, 0.5 h",,tissue uptake,4.4 ± 1.1 %ID/g
CNC(=O)c1cc(Cl)c(OC(C)(C)C(=O)O)cc1OC[C@@H](O)CN1CCC2(CC1)Cc1cc(Cl)ccc1O2,,equilibrium dialysis,"rat, plasma",,,fraction unbound,0.44
C[C@@H](O)CCOC(=O)C[C@@H](C)O,,,human,"oral drink, dose not given, 240 min post dose, mean",,heart rate,73 beats/min
CS(=O)(=O)c1ccc(-c2nc3ccccc3n2CC(=O)N/N=C/c2ccc(Cl)cc2)cc1,,,"rat, stomach","concentration not given, 4 h",relative to: normal control,ulcer preventive index,93.5%
O=C(N[C@@H](CSCc1ccc([N+](=O)[O-])cc1)C(=O)NO)c1ccccc1,,,male ICR mice,"oral, 200 mg/kg, 28 days, OECD 407 subacute toxicity",,serum glutathione,no effect
Cn1ncnc1[C@H]1c2n[nH]c(=O)c3cc(F)cc(c23)N[C@@H]1c1ccc(F)cc1,,,"human patients, plasma","oral, 600 µg/m2 twice daily day 1, day 5, dose level DL6, median, added: temozolomide 55 mg/m2 daily days 2-6",,CL/F at steady state,2.4 L/h/m2
COc1cccc(-c2n[nH]c(SCc3ccccn3)n2)c1OC,,,"Sprague-Dawley rats, both sexes","oral dietary, 30 mg/kg/day, day 90, 12 h",,plasma concentration,2860 ng/mL
CC(C)C(=O)O[C@H]1[C@H](C)OC(=O)[C@@H]1Cc1ccccc1,,,water/sediment,"20 °C, whole system, geometric mean, aerobic dark",,DT50,0.84 days
CNC(=O)c1ccc(-c2cnc3ncc(Cc4ccc5ncccc5c4)n3n2)cc1F,,,human moderate hepatic impairment,"oral, 200 mg single dose, adjusted geometric mean",,unbound AUC(0-inf),182 ng·h/mL
O=C(Nc1c2c(cc3c1CCC3)CCC2)NS(=O)(=O)/C=C/c1nccs1,,,rat liver microsomes,"1 µM, 30 min, added: NADPH",,metabolized fraction,8.6%
C[C@@H](Oc1ccc(S(C)(=O)=O)cc1C(=O)N1C[C@@H]2C[C@]2(c2cc(C(F)(F)F)on2)C1)C(F)(F)F,,,"young humans, plasma","oral, 25 mg once daily, single dose, geometric mean",,Vz/F,329 L
Cc1ccc([C@@H]2O[C@H](CO)[C@@H](O)[C@H](O)[C@H]2O)cc1Cc1ccc(-c2ccc(F)cc2)s1,,,Japanese type 2 diabetes patients,"400 mg, day 3, 24 h urine collection",relative to: baseline,urinary chloride excretion change,-11.6 mEq
O=C(Nc1nc2cccc(-c3ccc(CN4CCS(=O)(=O)CC4)cc3)n2n1)C1CC1,,refers to: metabolism and nutrition disorders,human rheumatoid arthritis patients,"oral, 75 mg once daily, 4 weeks, regardless of relatedness",,treatment-emergent adverse events,4.5%
CNC(=O)c1ccc(-c2cnc3ncc(Cc4ccc5ncccc5c4)n3n2)cc1F,,,Japanese patients,"oral, 400 mg twice daily, grade 3/4",,Dizziness patients,0%
Cc1cc(NC2CCN(C(=O)OC3CCN(C(=O)/C=C/CN(C)C)C3)CC2)n2ncc(C(C)C)c2n1 (stereo not shown),,"Phase I dose escalation CTCAE v4.0, refers to: abdominal pain",patients with advanced solid tumours,"dose not given, QD dosing grade 3 or higher",,patients with adverse event,0%
COc1ccc2c3c([nH]c2c1)[C@H](CC(C)C)N1C(=O)[C@H](CC(=O)NC(C)C)NC(=O)[C@@H]1C3,,,wild-type mouse,"oral, 100 mg/kg, 23 days",,liver histology,no effect
O=C(N[C@H](Cc1c[nH]c2ccccc12)C(=O)Nc1ccncc1)c1ccc(-c2cc(C(F)(F)F)ccc2F)cc1F,,,"Swiss Webster mouse, female, fat","oral, 50 mg/kg, 8 h, 20% Kolliphor vehicle",,concentration,21.2 µM
Cc1nc2ccc(OCc3ccc(C(F)(F)F)cc3)cc2[nH]1,,,"Balb/c mouse, male, brain","intravenous, 1 mg/kg, 3 h",relative to: tissue over plasma,tissue/plasma ratio,3.2 ± 0.5
CN1CCC[C@H](CN2c3ccccc3Sc3ccccc32)C1.Cl,,,"fasted female ICR mouse, eye","oral, 16 mg/kg",,Cmax,239 ng/g
CNCc1ccc(-c2[nH]c3cc(F)cc4c3c2CCNC4=O)cc1,,,patients,"oral, 600 mg twice daily, grade 5",,abdominal distension incidence,0%
C[C@@H]1CCO[C@H]2Cn3cc(C(=O)NCc4ccc(F)cc4F)c(=O)c(O)c3C(=O)N12,,,"human paediatric patients, weight sample B to under sample C kg, plasma","oral, 25 mg dispersible tablet, 24 h, steady state, geometric mean, population PK post-hoc, N 22",,trough concentration (C24),677 ng/mL
CCc1c(-c2ccccc2)c(-c2ccccc2)nn1-c1ccccc1-c1cccc(OCC(=O)O)c1,,,"Sprague-Dawley rat, fat homogenate","oral, 10 mg/kg, 8 h",,concentration,204 ng/mL and 170 ng/mL
O=C(/C=C/c1cccc(S(=O)(=O)Nc2ccccc2)c1)NO,,,"human patients, plasma",1800 mg/m^2,,Vss,30.1 L/m²
O=C(OC(C(F)(F)F)C(F)(F)F)N1CCN(Cc2cccc(Oc3ccccc3)c2)CC1,,PET blocking study,"rhesus monkey, brain THA","0.1 mg/kg, compound pretreatment, added: [18F]T-401 tracer",,k2,0.074 min⁻¹
C[C@@H](Nc1cc(F)cc(F)c1)c1cc(C(=O)N(C)C)cc2c(=O)cc(N3CCOCC3)oc12,,,advanced solid tumour patients,"oral, 30 mg twice daily, continuous monotherapy",,any dose reduction,25%
C[C@H]1C=C(Cc2ccccc2)C(=O)O1,,,"Staffordshire loam sediment, aerobic dark",20 °C,,DT50 sediment,19.5 days
CCN1CCN(C(=O)c2ccc(-n3nc(-c4cccnc4)c4c3-c3sc(NC(C)=O)nc3CC4)cc2)CC1,,,NSG mice,"dose not given, day 5",,body weight,16 g and 20 g and 19.7 g
CC(C)(C(=O)N1CCOc2c(C#N)cncc2C1)C(F)F,,refers to: upper abdominal pain,human,"oral, 20 mg twice daily, 14 days, multiple ascending dose",,subjects with adverse event,0%
Cc1cccc(CNC(=O)c2cn(CCNC(=O)c3ccccc3S)c3cc4c(cc3c2=O)OC(F)(F)O4)n1,,,"Sprague-Dawley rat, male, plasma","intramuscular, 3 mg/kg of parent compound",,AUC(0-t),155 ± 44.2 ng·h/mL
Cn1cc(-c2ccc(-c3cncc(Cl)c3N3CCC4(CCNC4=O)CC3)cc2)cn1,COLO 205,"gene expression, microarray, refers to: EMP1 mRNA",,"concentration not given, 2 h",relative to: untreated cells,log2 fold change,3.82
C[C@@H](N)C1CCN(S(=O)(=O)c2cccc3cnccc23)CC1,,,healthy volunteers,"150 mg single dose, fed",,discontinuations due to TEAEs,0%
CO[C@H]1C[C@@H]2CC[C@@H](C)[C@@](O)(O2)C(=O)C(=O)N2CCCC[C@H]2C(=O)O[C@H]([C@H](C)C[C@@H]2CC[C@@H](O)[C@H](OC)C2)CC(=O)[C@H](C)/C=C(\C)[C@@H](O)[C@@H](OC)C(=O)[C@H](C)C[C@H](C)/C=C/C=C/C=C/1C,,,healthy adult horses,"oral, 0.06 mg/kg, 2 h",,rectal temperature,36.9 ± 0.4 °C
C=CCN1CC(=O)N2[C@@H](Cc3ccc(O)cc3F)C(=O)N(Cc3cccc(N4CC(N5CCN(CC)CC5)C4)n3)C[C@@H]2N1C(=O)NCc1ccccc1,,,advanced solid tumour patients,"oral, 15 mg twice daily, grade ≥3, dose-escalation",,any treatment-related adverse event,0%
N[C@@H](C[18F])C(=O)O,,PET imaging,"female athymic nude mice, U-87 MG xenograft","intravenous, 20 min",relative to: tumour over muscle,tumour-to-muscle ratio,1.63 ± 0.26
CCN1CCN(Cc2ccc(NC(=O)c3ccc(C)c(NC(=O)c4cncc(-c5cccs5)c4)c3)cc2C(F)(F)F)CC1,,,"C57BL/6 mouse, plasma","intraperitoneal, 15 mg/kg, 0.25 to 8.0 h, single dose",,AUC/dose,0.12 kg·µg·h/mL/mg
COc1cc(N2CCC(N3CCN(C)CC3)CC2)ccc1Nc1ncc(Cl)c(Nc2ccccc2P(C)(C)=O)n1,,,"nude mice, NCI-H3122 xenograft","intraperitoneal, 10 mg/kg every other day, day 7",,body weight,23.9 g and 23.3 g and 24.8 g and 22.4 g and 25.1 g
COc1ccn2c(Nc3ccccc3F)c(-c3ccncn3)nc2c1,,,"peritoneal macrophages, Swiss mice","5 days, 5% fetal calf serum",,CC50,50.1 µM
CC[C@@H]1CN(C(=O)NCC(F)(F)F)C[C@@H]1c1cnc2cnc3[nH]ccc3n12,,,"healthy subjects, plasma","oral, extended-release formulation, population PK model",,zero-order absorption duration (D2),6.11 h
N#Cc1ccc2c(c1)[C@H]1CCCN(C(=O)c3ccc4[nH]cnc4c3)[C@H]1C2,,,human,"360 mg, day 15",,mean ACTH level,7.6 pmol/L
